Experimental data pooled from the literature.
Parts stem from different laboratories: compare values within a part only. Changes are numbered by the printed parent chain.

Set 1
Target: CCNB2, cyclin fold, Cln2 fusion (human)
Method: yeast growth competition, sequencing
Sample: yeast
Notes: weak parent motif
Baseline: not given
Reading: higher = stronger binding
Starting sequence: CDC25A docking peptide (human); PPHRRRLLFACSP; partner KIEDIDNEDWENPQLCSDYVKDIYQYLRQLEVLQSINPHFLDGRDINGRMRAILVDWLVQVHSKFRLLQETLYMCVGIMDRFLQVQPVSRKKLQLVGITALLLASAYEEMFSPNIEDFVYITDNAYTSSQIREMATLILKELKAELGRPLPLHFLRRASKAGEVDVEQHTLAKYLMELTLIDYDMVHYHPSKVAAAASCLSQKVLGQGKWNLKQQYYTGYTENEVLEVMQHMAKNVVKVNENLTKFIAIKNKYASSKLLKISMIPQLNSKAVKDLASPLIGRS
`P13H`: “normalised enrichment score” 0.561.
`H3D`: “normalised enrichment score” 0.821.
For `L8D`, “normalised enrichment score” read 0.375.
`R6E` — result for “normalised enrichment score”: -0.017.
`A10N` — result for “normalised enrichment score”: -0.021.
Under “normalised enrichment score”, `R4P` is recorded as -0.162.
For `H3L`, “normalised enrichment score” read 0.917.
For `A10K`, “normalised enrichment score” read 0.469.
`C11V`: “normalised enrichment score” 0.0784.
`H3F`: “normalised enrichment score” 0.993.
`S12Y` — result for “normalised enrichment score”: 0.598.
`S12P` — result for “normalised enrichment score”: 0.433.
Under “normalised enrichment score”, `S12C` is recorded as 0.433.

Set 2
Target: Histone acetyltransferase KAT6A, winged helix 1, GST fusion (KAT6A, Homo sapiens, UniProt Q92794, residues 1-85)
Method: protein binding microarray
Molecule type: double-stranded DNA, one strand shown
Sample: in vitro
Concentration: not given
Notes: 8-mer, flanks averaged, mean of 2 arrays, mostly near background
Baseline: not given
Reading: higher = stronger binding
Construct (chain): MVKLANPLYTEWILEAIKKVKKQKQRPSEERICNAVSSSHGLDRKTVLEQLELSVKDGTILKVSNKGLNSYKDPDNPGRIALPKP
With `ACAAACTC` the E-score was -0.127.
`AAGTTATC` has an E-score of -0.136.
The E-score of `CGGGGGAA` is reported as 0.253.
For `AACGTAAT`, the E-score was -0.0864.
For `CCAATAAG`, the E-score was -0.0802.
The E-score of `CAGCAAGA` is reported as -0.185.
The E-score of `AGCAGCGG` is reported as 0.14.
`AGCAGTCA` gave an E-score of -0.143.
`CGAGCTTC` gave an E-score of -0.0265.
`CAAGCCCC` gave an E-score of -0.0801.
For `CATAGATC`, the E-score was -0.131.
`CTCTTAAC` has an E-score of -0.127.
`AGGAACTG` has an E-score of -0.0929.
`GGCGTGGA` gave an E-score of 0.237.

Set 3
Target: Sal-like protein 4, full length isoform A (SALL4, Homo sapiens, UniProt Q9UJQ4, residues 1-1053)
Sequence of UniProt Q9UJQ4 (whole entry, looked up): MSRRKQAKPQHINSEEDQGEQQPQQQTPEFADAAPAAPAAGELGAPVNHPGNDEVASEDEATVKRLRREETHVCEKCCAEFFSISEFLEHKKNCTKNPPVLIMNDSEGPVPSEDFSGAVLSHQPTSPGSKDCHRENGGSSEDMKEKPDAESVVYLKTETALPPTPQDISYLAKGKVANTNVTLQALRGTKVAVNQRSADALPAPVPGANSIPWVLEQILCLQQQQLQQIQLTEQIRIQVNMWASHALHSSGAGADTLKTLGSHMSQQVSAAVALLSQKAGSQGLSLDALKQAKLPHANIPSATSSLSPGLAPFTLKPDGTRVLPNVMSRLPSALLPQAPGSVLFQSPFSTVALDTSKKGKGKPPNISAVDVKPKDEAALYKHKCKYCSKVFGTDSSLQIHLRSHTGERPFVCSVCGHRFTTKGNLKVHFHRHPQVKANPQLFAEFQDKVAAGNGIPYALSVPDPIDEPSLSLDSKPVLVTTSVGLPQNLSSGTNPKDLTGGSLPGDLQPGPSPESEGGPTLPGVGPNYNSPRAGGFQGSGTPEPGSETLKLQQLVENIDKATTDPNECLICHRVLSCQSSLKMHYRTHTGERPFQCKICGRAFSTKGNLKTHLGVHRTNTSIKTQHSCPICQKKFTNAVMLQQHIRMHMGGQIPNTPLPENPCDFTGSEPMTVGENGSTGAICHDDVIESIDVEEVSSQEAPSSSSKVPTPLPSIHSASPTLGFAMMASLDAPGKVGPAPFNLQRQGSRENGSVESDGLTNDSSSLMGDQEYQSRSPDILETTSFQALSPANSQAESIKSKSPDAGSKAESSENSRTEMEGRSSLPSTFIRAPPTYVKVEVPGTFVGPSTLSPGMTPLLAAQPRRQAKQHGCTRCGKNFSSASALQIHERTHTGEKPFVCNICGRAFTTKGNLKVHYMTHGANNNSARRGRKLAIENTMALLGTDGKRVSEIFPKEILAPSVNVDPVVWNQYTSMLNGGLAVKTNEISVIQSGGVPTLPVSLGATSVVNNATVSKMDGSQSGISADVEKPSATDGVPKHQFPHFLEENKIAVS
Method: universal PBM
Molecule type: double-stranded DNA, one strand shown
Sample: in vitro
Concentration: 600 nM
Notes: 8-mer, flanks averaged, mean of replicates
Reading: higher = stronger binding
For `ATCTGGGA`, the E-score was -0.0496.
For `CAAGACCG`, the E-score was -0.248.
With `GGGATAAA` the E-score was 0.148.
The E-score of `AAAAGCTC` is reported as -0.0745.
With `ACCCGCAA` the E-score was -0.192.
`ACCCGAGG` has an E-score of -0.231.
For `ACGATCTC`, the E-score was -0.0924.
`CCTACCAA` gave an E-score of 0.00734.
`AGCTGGCA` has an E-score of -0.266.

Other studies, line by line
With `PhoQ, residues 284 288 289 292 302 303 SLKLQV` the fold induction was 16.3 (PhoP, residues 12 14 15 18 19 VQALL (Escherichia coli, UniProt P23836); Sort-seq, measured: YFP reporter; E. coli; PhoQ-PhoP variant library, with: 10 µM Mg2+; baseline: high Mg2+ state, higher = stronger signaling).

A few entries again (set 3):
For `ATCTGGGA`, the E-score was -0.0496.
`ACCCGAGG` has an E-score of -0.231.
For `ACGATCTC`, the E-score was -0.0924.
With `GGGATAAA` the E-score was 0.148.
For `CAAGACCG`, the E-score was -0.248.
The E-score of `AAAAGCTC` is reported as -0.0745.
